Results collected from several papers.
Lines come from different studies, so protocols differ. “And” joins repeats or separate records; there may be more than shown. ± gives the spread as reported.
Sequence of UniProt P20813 (whole entry, looked up): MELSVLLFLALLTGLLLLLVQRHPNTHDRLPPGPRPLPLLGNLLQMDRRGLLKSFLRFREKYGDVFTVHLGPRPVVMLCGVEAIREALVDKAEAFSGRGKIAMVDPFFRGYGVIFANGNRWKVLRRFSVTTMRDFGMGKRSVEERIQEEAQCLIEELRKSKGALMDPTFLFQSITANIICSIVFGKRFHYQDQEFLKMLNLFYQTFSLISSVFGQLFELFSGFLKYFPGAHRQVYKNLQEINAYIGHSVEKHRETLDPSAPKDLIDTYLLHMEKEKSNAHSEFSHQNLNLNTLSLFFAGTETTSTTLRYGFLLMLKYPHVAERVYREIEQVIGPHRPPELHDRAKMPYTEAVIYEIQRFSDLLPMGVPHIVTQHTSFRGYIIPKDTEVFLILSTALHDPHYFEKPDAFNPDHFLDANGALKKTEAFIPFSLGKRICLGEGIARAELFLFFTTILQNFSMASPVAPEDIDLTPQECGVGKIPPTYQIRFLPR

CCN(CC)CC#CCNc1ccnc2cc(Cl)ccc12 — mean revertants (Salmonella typhimurium; mini-Ames test; TA100; 500.0 µg/well, with rat liver S9): 15 revertants/well
O=C(O)CCCOc1ccc(O)cc1-c1cc(-c2ccccc2C(F)(F)F)n(-c2ccccc2)n1 — beat rate (human iPSC-derived cardiomyocytes; 20 µM): 42.5 ± 2.3 min⁻¹
CC(C)Cc1ccc(C(C)C(=O)N[C@@H](CCCCNC(=O)CCOCCOCCOCCOCCOCCOCCNC(=O)CN2CCN(CC(=O)[O-])CCN(CC(=O)[O-])CCN(CC(=O)[O-])CC2)C(=O)Nc2cccc3c(C(=O)NCC(=O)N4CC(F)(F)C[C@H]4C#N)ccnc23)cc1.[177Lu+3] (stereo partly shown) — tracer uptake (U-87 MG tumour model; host not given, pancreas; 4 h, tumour-bearing): 6.55 %ID/g
CC(C)OCCOCc1ccc(OCC(O)CN(N=O)C(C)C)cc1 (stereo not shown) — revertant fold increase (Salmonella typhimurium; Ames test; TA100; 1580 µg/plate, 30 % rat S9; relative to: solvent control): 0.8 fold
Brc1ccccc1-c1cc(CN2c3ccccc3C=Cc3ccccc32)on1 — IC50 (BJ; cytotoxicity): > 30 µM
Cc1nc2cccc(OCC(C)(C)C(=O)NC(C)C)c2c(N)c1C(=O)[O-].[Na+] — relative mitotic index (human peripheral blood lymphocytes; 250 g/mL, 20 h, without S9): 108%
O=C(Nc1cnccc1-c1ccc([18F])nc1)c1ccnc(NC(=O)C2CC2)c1 — SUV (FVB/NJ mice, both sexes, brain; intravenous, 50 min, median, P-gp inhibitor pretreatment, together with: tariquidar 15 mg/kg iv): 0.152
N#C[C@@H]1CCCN1C(=O)CNC(=O)c1ccnc2ccc(OCCCN3CCN(C(=O)CCc4ccc5c(c4)CN4CCN6CC(=O)[O][68Ga-]([O]C(=O)C4)([O]5)[O]c4ccc(CCC(=O)N5CCN(CCCOc7ccc8nccc(C(=O)NCC(=O)N9CCC[C@H]9C#N)c8c7)CC5)cc4C6)CC3)cc12 — tracer uptake (U-87 MG tumour model; host not given, stomach; 1 h, tumour-bearing): 1.3 %ID/g
C=C(NC(=O)c1csc(-c2nc3c(cc2O)-c2nc(cs2)C(=O)NC(C(C)O)C(=O)NC(=C(C)OC)c2nc(cs2)C(=O)NC2c4nc(cs4)C(=O)NC(COC(=O)c4c5c6c(cccc6n4O)COC(=O)C(OC4CC(C)(O)C(N(C)C)C(C)O4)C2OC5)c2nc-3cs2)n1)C(N)=O (stereo not shown) — MRT(0-last) (cynomolgus monkey, female, plasma; intravenous infusion, 3 mg/kg multiple doses, day 7): 1.33 h
N#C[C@@H]1CC(F)(F)CN1C(=O)CNC(=O)c1ccnc2c(NC(=O)[C@@H](N)CCCCNC(=O)CCOCCOCCOCCOCCOCCOCCNC(=O)CN3CCN(CC(=O)[O-])CCN(CC(=O)[O-])CCN(CC(=O)[O-])CC3)cccc12.[177Lu+3] — tracer uptake (U-87 MG tumour model; host not given, liver; 1 h, tumour-bearing): 0.47 %ID/g
COC(=O)Nc1nc2cc(C(O)c3ccc(F)cc3)ccc2[nH]1 (stereo not shown) — revertants (Salmonella typhimurium; Ames preincubation test; TA100; 875.0 µg per plate, 3 days, without S9, precipitation): 150 revertants per plate
N#C[C@@H]1CC(F)(F)CN1C(=O)CNC(=O)c1ccnc2c(NC(=O)[C@H](CCCCNC(=O)CCOCCOCCOCCOCCOCCOCCNC(=O)CN3CCN(CC(=O)[O-])CCN(CC(=O)[O-])CCN(CC(=O)[O-])CC3)NC(=O)CCCc3ccc(I)cc3)cccc12.[177Lu+3] — tracer uptake (U-87 MG tumour model; host not given, tumour; 4 h, tumour-bearing): 26.8 %ID/g
N#C[C@@H]1CCCN1C(=O)CNC(=O)c1ccnc2ccc(OCCCN3CCN(C(=O)CCc4ccc5c(c4)CN4CCN(Cc6cc(CCC(=O)O)ccc6O)CC(=O)[O][Al-]([18F])([O]C(=O)C4)[O]5)CC3)cc12 (stereo partly shown) — tracer uptake (U-87 MG tumour model; host not given, liver; 1 h, tumour-bearing): 1.6 %ID/g
O=C1NC2(CC2)COc2ncc(F)cc2[C@H]2COCCN2c2ccn3ncc1c3n2 — revertant colonies (Salmonella typhimurium; Ames test; TA102; 500 µg/plate, 48 h, together with: without S9): 360 ± 18 revertants/plate
Nc1nc2cc(C(=O)c3ccc(F)cc3)ccc2[nH]1 — revertants per plate (Salmonella typhimurium; Ames preincubation test; TA98; 625.0 µg/plate, 3 days, without S9): 17.7 revertants/plate
COc1cccc(OC)c1-c1cc(C(=O)NC2(C(=O)O)C3CC4CC(C3)CC2C4)nn1-c1ccc(C(=O)NCCNC(=O)[C@H](CCCCNC(=O)[C@H](CC(C)C)NC(=O)C2OC2C(=O)O)NC(=O)CN2CCN(CC(=O)[O-])CCN(CC(=O)[O-])CCN(CC(=O)[O-])CC2)cc1C(C)C.[177Lu+3] (mixture of isomers) — tracer uptake (HT-29 tumour model; host not given, blood; 4 h, tumour-bearing): 3.1 %ID/g
N#C[C@@H]1CCCN1C(=O)CNC(=O)c1ccnc2ccc(OCCCN3CCN(C(=O)CCc4ccc(O)c(CN5CCN6CC(=O)[O][Al-]([18F])([O]C(=O)C5)[O]c5ccc(CCC(=O)N7CCN(CCCOc8ccc9nccc(C(=O)NCC(=O)N%10CCC[C@H]%10C#N)c9c8)CC7)cc5C6)c4)CC3)cc12 (stereo partly shown) — tracer uptake (U-87 MG tumour model; host not given, stomach; 1 h, tumour-bearing): 2.51 %ID/g
CN1CCCNC(=O)c2cccc(c2)C(=O)NCCCN(C)CCCNc2cccc3c2C(=O)c2cccc(c2C3=O)NCCC1 — viability (HSC-2; cell growth or viability, CCK-8; 15 nM, 48 h): 100%
COc1cccc(OC)c1-c1cc(C(=O)NC2(C(=O)O)C3CC4CC(C3)CC2C4)nn1-c1ccc(C(=O)N(C)CCCN(C)CCCN(C)C(=O)[C@H](CCCCNC(=O)[C@H](CC(C)C)NC(=O)C2OC2C(=O)O)NC(=O)CN2CCN(CC(=O)[O-])CCN(CC(=O)[O-])CCN(CC(=O)[O-])CC2)cc1C(C)C.[177Lu+3] (mixture of isomers) — tracer uptake (HT-29 tumour model; host not given, bone; 7 days, tumour-bearing): 0.4 %ID/g
O=C1C2CC3CC1CC(C(=O)N1CCN(c4ccc([N+](=O)[O-])c5ncccc45)CC1)(C3)C2 — mean revertant colonies (Salmonella typhimurium; Ames test; TA100; 0.31 µg/well, without S9): 18 colonies/well
O=C(Nc1cnccc1-c1ccc([18F])cc1)c1ccnc(NC(=O)C2CC2)c1 — SUV (mice, transgenic, GSK-3β, early-stage, pancreas; intravenous, dose not given, 120 min): 0.16
CNC(=O)C1CCCN(C(=O)C2CC3CCC2N3C(=O)[C@@H]2C[C@@H](O)CN2C(=O)NCc2cccc(Cl)c2F)C1 (mixture of isomers) — remaining activity (Cytochrome P450 2B6 (CYP2B6, Homo sapiens, UniProt P20813); preincubation with NADPH; human; 1.85 µM; relative to: negative control): 106% and 97.7% and 103%

Some of these lines once more:
C=C(NC(=O)c1csc(-c2nc3c(cc2O)-c2nc(cs2)C(=O)NC(C(C)O)C(=O)NC(=C(C)OC)c2nc(cs2)C(=O)NC2c4nc(cs4)C(=O)NC(COC(=O)c4c5c6c(cccc6n4O)COC(=O)C(OC4CC(C)(O)C(N(C)C)C(C)O4)C2OC5)c2nc-3cs2)n1)C(N)=O (stereo not shown) — MRT(0-last) (cynomolgus monkey, female, plasma; intravenous infusion, 3 mg/kg multiple doses, day 7): 1.33 h
